Measurements collected from several papers.
“And” joins repeats or separate records; there may be more than shown. Numbers after ± are the reported error.

O=C(O)CSc1nnc(Br)n1-c1ccc(C2CC2)c2ccccc12
body weight (KM mouse, chronic hyperuricaemia model; dose not given, day 3): 27.8 g and 25 g and 23.6 g and 30.2 g and 28.1 g and 26.9 g

O=[N+]([O-])c1ccc(-c2ccc(O)cc2)c2cccnc12
AUC(0-t)/AUC(0-inf) ratio (ICR mouse, male, plasma; oral, 5 mg/kg): 0.87

CC(C)=CCC/C(C)=C/C(=O)O.Cc1cc(/C=C/C#N)cc(C)c1Nc1ccnc(Nc2ccc(C#N)cc2)n1
kinetic solubility (Labrasol ALF): ~150 mg/mL

CCCC1CCC(C2CCC(c3cc(F)c(F)c(F)c3)CC2)CC1 (stereo not drawn)
median fetal accumulation (rat, fetus; 5000 ng/mL in perfusate, high dose, mixture of 21 LCMs): 4.25 ng/g

COc1ncc(-c2nc3c(n2C(C)C)[C@H](c2ccc(Cl)cc2)N(c2cc(Cl)cn(C)c2=O)C3=O)c(OC)n1
AUC(0-t) geometric mean (human patients, plasma; oral, 25 mg, 0-24 h, low-dose arm, cycle 1 day 1): 2670 ng·h/mL

C[C@@H]1COCCN1c1cc(C2([S@](C)(=N)=O)CC2)nc(-c2cc[nH]c3nccc2-3)n1
Fatigue incidence (Japanese advanced solid tumour patients; oral, 160 mg twice daily, CTCAE grade ≥3): 0%

N#Cc1ccc2c(c1)[C@H]1CCCN(C(=O)c3ccc4[nH]cnc4c3)[C@H]1C2
androstenedione level (human, male; 80 mg, end of trial): 5.6 nmol/L

CCn1cc(C(=O)N2CCOCC2)c(=O)c2cc(NC3Cc4ccccc4C3)cnc21
half-life (human, fed; oral suspension, 600 mg/day twice daily, day 8, arithmetic mean): 5.43 h

CCNCCCNC/C=C\CNCCCNCC
AUMC(0-inf) (LC-MS/MS; human cancer patients, plasma; intravenous infusion 60 min, 200 mg, median, cycle 1): 1360 ng·h²/mL

Cc1cc(-c2nccc3c2ccn3CC(=O)Nc2ccc(-c3cnccn3)cn2)ccn1
subjects with any IMP-related TEAE (human; SAD part, single 20 mg dose): 16.7%

O=C(O)CCCOc1ccc([18F])cc1-c1cc(-c2ccccc2C(F)(F)F)n(-c2ccccc2)n1
radioactivity uptake (gamma counting; male ddY mice, kidney; intravenous, 2.1 MBq, 5 min): 3.29 ± 0.58 SUV

N#CCNC(=O)c1ccc(-c2ccnc(Nc3ccc(N4CCOCC4=O)cc3)n2)cc1
AUCinf geometric mean ratio (healthy volunteers, plasma; dose not given, with: rifampin multiple-dose; baseline: with rifampin over alone): 96%

O=C(Nc1nc2cccc(-c3ccc(CN4CCS(=O)(=O)CC4)cc3)n2n1)C1CC1
treatment-emergent adverse events (refers to: aspartate aminotransferase increased; human rheumatoid arthritis patients; oral, 300 mg once daily, 4 weeks, regardless of relatedness): 0%

C=CCN1CC(=O)N2[C@@H](Cc3ccc(O)cc3F)C(=O)N(Cc3cccc(N4CC(N5CCN(CC)CC5)C4)n3)C[C@@H]2N1C(=O)NCc1ccccc1
treatment-related AST increased (advanced solid tumour patients; oral, 45 mg twice daily, any grade, dose-escalation): 0%

CCC(=O)O[C@]1(C(=O)SCF)[C@H](C)C[C@H]2[C@@H]3C[C@H](F)C4=CC(=O)C=C[C@]4(C)[C@@]3(F)[C@@H](O)C[C@@]21C
rapid distribution clearance (three-compartment model; rat, plasma; intravenous, 90 nmol/kg): 96.7 ± 26.7 mL/min/kg

Cc1ncc(CO)c(C(=O)O)c1O
AUC(0-12h) (Japanese men, plasma; dose not given): 28.2 ± 7.8 ng·h/mL

Cc1nc2cccc(OCC(C)(C)C(=O)NC(C)C)c2c(N)c1C(=O)O
mean body weight change (Swiss albino CD-1 mouse; oral, 2000 mg/kg, 36 h): 2.3 ± 0.6 g

COc1cccc(-c2n[nH]c(SCc3ccccn3)n2)c1OC
plasma concentration (Sprague-Dawley rats, both sexes; oral dietary, 10 mg/kg/day, day 90, 0 h): 264 ng/mL

CCC(C)n1ncn(-c2ccc(N3CCN(c4ccc(OCC5COC(Cn6cncn6)(c6ccc(Cl)cc6Cl)O5)cc4)CC3)cc2)c1=O (stereo not drawn)
adverse event incidence (refers to: lung abscess; healthy human participants; oral, 200 mg, compound alone cohort): 7%

COc1cc2[nH]c(C)c(-c3ccc(C)cc3C)c(=O)c2cc1Cl
kinetic solubility (pH 7.4): < 2 µM

FC(F)(F)c1ccc(CNc2ccc(Cc3c[nH]c4ncc(Cl)cc34)cn2)cn1
treatment-related adverse events (refers to: memory impairment; human, advanced solid tumours, non-TGCT cohort; oral, 1000 mg/day, any grade): 0%
